# Published values pooled from the literature.
# Protocols differ between the studies behind these lines. ± gives the spread as reported.
# MDM2: E3 ubiquitin-protein ligase Mdm2 (MDM2, Homo sapiens, UniProt Q00987)
# Chain of UniProt Q00987 (whole entry, unmodified, looked up): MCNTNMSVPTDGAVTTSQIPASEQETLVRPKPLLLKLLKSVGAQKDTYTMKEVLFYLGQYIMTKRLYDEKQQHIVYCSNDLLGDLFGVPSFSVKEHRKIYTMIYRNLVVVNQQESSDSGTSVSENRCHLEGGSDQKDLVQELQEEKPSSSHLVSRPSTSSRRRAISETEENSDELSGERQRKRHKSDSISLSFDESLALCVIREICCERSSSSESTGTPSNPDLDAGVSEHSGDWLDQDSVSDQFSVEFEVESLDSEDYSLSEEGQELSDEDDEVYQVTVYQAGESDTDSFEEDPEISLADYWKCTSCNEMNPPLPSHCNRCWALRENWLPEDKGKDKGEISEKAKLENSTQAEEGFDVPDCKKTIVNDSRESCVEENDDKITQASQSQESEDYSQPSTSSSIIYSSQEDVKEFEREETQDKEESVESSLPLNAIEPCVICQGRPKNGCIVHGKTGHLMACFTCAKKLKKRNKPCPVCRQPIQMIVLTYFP
# MDM2 N-terminal domain 17-125: E3 ubiquitin-protein ligase Mdm2, N-terminal domain 17-125 (MDM2, Homo sapiens, UniProt Q00987)
Compound,target,assay,conditions,quantity,value
CC(=O)N(Cc1ccc(Cl)cc1)[C@@H](C)C(=O)N(C)[C@@H](C)C(=O)N(Cc1c[nH]c2ccccc12)[C@@H](C)C(=O)N(C)[C@@H](C)C(=O)N(CCC(C)C)[C@@H](C)C(N)=O,MDM2,"ligand displacement, FP",,Ki,22.3 µM
CC(=O)N[C@@H](CC(C)C)C(=O)N[C@H](C(=O)N[C@@H](Cc1ccccc1)C(=O)N[C@H]1CSCCCCCCCCSC[C@@H](C(=O)N[C@@H](CO)C(N)=O)NC(=O)[C@H](CC(C)C)NC(=O)[C@H](CCC(N)=O)NC(=O)[C@H](C)NC(=O)[C@H](Cc2c[nH]c3ccccc23)NC(=O)[C@H](Cc2ccc(O)cc2)NC(=O)[C@H](CCC(=O)O)NC1=O)[C@@H](C)O,MDM2,"ligand displacement, FP",,IC50,0.0407 µM
CC(=O)N(Cc1ccccc1)[C@@H](C)C(=O)N(C)CC(=O)N(Cc1c[nH]c2cc(Cl)ccc12)[C@@H](C)C(=O)N(C)CC(=O)N(CCC(C)(C)C)[C@@H](C)C(=O)N(C)CC(=O)N(C)CC(=O)N(C)CC(=O)NCCNC(=O)c1ccc2c(c1)C(=O)OC21c2ccc(O)cc2Oc2cc(O)ccc21,MDM2 N-terminal domain 17-125,"binding, fluorescence anisotropy","25 °C, fluorescein-labelled peptoid, 10 nM",Kd,0.75 µM
CCOC(=O)[C@@H]1Cc2c(cc([N+](=O)[O-])cc2[N+](=O)[O-])[C@H](O)[C@]12C(=O)Nc1ccc(Br)cc12,MDM2,,,IC50,0.078 µM
CC(=O)N[C@@H](CC(C)C)C(=O)N[C@H](C(=O)N[C@@H](Cc1ccccc1)C(=O)N[C@H]1CCCCNC(=O)C[C@@H](C(=O)N[C@@H](CCC(N)=O)C(=O)N[C@@H](CC(C)C)C(=O)N[C@H](C(=O)N[C@@H](CO)C(N)=O)[C@@H](C)O)NC(=O)[C@H](Cc2c[nH]c3ccccc23)NC(=O)[C@H](Cc2ccc(O)cc2)NC(=O)[C@H](CCC(=O)O)NC1=O)[C@@H](C)O,MDM2,"ligand displacement, FP",,IC50,0.007 µM
CC(=O)N(Cc1ccccc1)[C@@H](C)C(=O)N(C)[C@@H](C)C(=O)N(Cc1c[nH]c2ccccc12)[C@@H](C)C(=O)N(C)[C@@H](C)C(=O)N(CC1CCCCC1)[C@@H](C)C(N)=O,MDM2,"ligand displacement, FP",,Ki,23.8 µM
CC(=O)N(CC(=O)N(C)CC(=O)N(CC(=O)N(C)CC(=O)N(CCC(C)(C)C)CC(=O)N(C)CC(=O)N(C)CC(=O)N(C)CC(=O)NCCNC(=O)c1ccc2c(c1)C(=O)OC21c2ccc(O)cc2Oc2cc(O)ccc21)Cc1c[nH]c2cc(Cl)ccc12)Cc1ccccc1,MDM2 N-terminal domain 17-125,"binding, fluorescence anisotropy","25 °C, fluorescein-labelled peptoid, 10 nM",Kd,21 µM
CC(=O)N[C@@H](CC(C)C)C(=O)N[C@H](C(=O)N[C@@H](Cc1ccccc1)C(=O)N[C@@H]1CSCc2ccc(cc2)-c2ccc(cc2)CSC[C@@H](C(=O)N[C@@H](CO)C(N)=O)NC(=O)[C@H](CC(C)C)NC(=O)[C@H](CCC(N)=O)NC(=O)[C@H](C)NC(=O)[C@H](Cc2c[nH]c3ccccc23)NC(=O)[C@H](Cc2ccc(O)cc2)NC(=O)[C@H](CCC(=O)O)NC1=O)[C@@H](C)O,MDM2,"ligand displacement, FP",,IC50,0.095 µM
CCCCN(C(=O)[C@H](C)N(C)C(=O)[C@H](C)N(Cc1c[nH]c2ccccc12)C(=O)[C@H](C)N(C)C(=O)[C@H](C)N(Cc1ccccc1)C(C)=O)[C@@H](C)C(N)=O,MDM2,"ligand displacement, FP",,Ki,10.6 µM
CC(C)Oc1cc(C(=O)NCC(=O)O)ccc1NC(=O)[C@H](Cc1ccccc1)NC(=O)c1ccc(N)cc1OCc1ccccc1,"E3 ubiquitin-protein ligase Mdm2, L33E; with p53 (MDM2, Homo sapiens, UniProt Q00987, L33E)",fluorescence anisotropy competition,pH 7.5,IC50,62.3 ± 5.6 µM
